Experimental data of several laboratories.
A part holds a random share of what one study measured. Substitutions count along the parent as printed.

Study 1
Target: CCNB3, cyclin fold, Cln2 fusion (human)
Technique: yeast growth competition, sequencing
Sample: yeast
Setting: weak parent motif
Reference: not given
Reading: higher = stronger binding
Endpoint: normalised enrichment score
Starting sequence: CDKN1A docking peptide (human); SKACRRLFGPVDS
Substitution = G9T; result = 0.563
Substitution = G9C; result = 0.446
Substitution = C4D; result = -0.0381
Substitution = V11L; result = 0.0862
Substitution = L7A; result = -0.0797
Substitution = D12V; result = 0.38
Substitution = V11P; result = 0.234
Substitution = P10F; result = 0.179
Substitution = R5D; result = -0.238
Substitution = F8R; result = 0.289
Substitution = R5S; result = -0.265

Study 2
Target: Histone acetyltransferase KAT6A, winged helix 2, GST fusion (KAT6A, Homo sapiens, UniProt Q92794, residues 85-181)
Technique: protein binding microarray
Molecule type: double-stranded DNA, one strand shown
Sample: in vitro
Tested at: not given
Setting: 8-mer, flanks averaged, mean of 2 arrays, mostly near background
Reference: not given
Reading: higher = stronger binding
Endpoint: E-score
Target sequence (chain): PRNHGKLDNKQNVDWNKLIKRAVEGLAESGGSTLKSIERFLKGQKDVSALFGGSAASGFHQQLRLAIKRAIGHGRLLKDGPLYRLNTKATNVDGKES
Oligonucleotide = CGACATTA; result = -0.0867
Oligonucleotide = AGTACGAC; result = -0.159
Oligonucleotide = GATACGAA; result = 0.0888
Oligonucleotide = CCTAAAGC; result = -0.0346
Oligonucleotide = ATTCGTTC; result = 0.078
Oligonucleotide = CCATATAG; result = -0.135
Oligonucleotide = GCGCCTGA; result = 0.0651
Oligonucleotide = AGCCTGTC; result = 0.0249
Oligonucleotide = CGGGGACA; result = 0.0395
Oligonucleotide = ATTTATAG; result = -0.0807
Oligonucleotide = GGGAGTAA; result = 0.0497
Oligonucleotide = ACACGCGA; result = 0.0825
Oligonucleotide = AAGTGAAC; result = -0.0995
Oligonucleotide = CGATCGCA; result = 0.171

Study 3
Target: Sal-like protein 4, full length isoform A (SALL4, Homo sapiens, UniProt Q9UJQ4, residues 1-1053)
Sequence of UniProt Q9UJQ4 (whole entry, looked up): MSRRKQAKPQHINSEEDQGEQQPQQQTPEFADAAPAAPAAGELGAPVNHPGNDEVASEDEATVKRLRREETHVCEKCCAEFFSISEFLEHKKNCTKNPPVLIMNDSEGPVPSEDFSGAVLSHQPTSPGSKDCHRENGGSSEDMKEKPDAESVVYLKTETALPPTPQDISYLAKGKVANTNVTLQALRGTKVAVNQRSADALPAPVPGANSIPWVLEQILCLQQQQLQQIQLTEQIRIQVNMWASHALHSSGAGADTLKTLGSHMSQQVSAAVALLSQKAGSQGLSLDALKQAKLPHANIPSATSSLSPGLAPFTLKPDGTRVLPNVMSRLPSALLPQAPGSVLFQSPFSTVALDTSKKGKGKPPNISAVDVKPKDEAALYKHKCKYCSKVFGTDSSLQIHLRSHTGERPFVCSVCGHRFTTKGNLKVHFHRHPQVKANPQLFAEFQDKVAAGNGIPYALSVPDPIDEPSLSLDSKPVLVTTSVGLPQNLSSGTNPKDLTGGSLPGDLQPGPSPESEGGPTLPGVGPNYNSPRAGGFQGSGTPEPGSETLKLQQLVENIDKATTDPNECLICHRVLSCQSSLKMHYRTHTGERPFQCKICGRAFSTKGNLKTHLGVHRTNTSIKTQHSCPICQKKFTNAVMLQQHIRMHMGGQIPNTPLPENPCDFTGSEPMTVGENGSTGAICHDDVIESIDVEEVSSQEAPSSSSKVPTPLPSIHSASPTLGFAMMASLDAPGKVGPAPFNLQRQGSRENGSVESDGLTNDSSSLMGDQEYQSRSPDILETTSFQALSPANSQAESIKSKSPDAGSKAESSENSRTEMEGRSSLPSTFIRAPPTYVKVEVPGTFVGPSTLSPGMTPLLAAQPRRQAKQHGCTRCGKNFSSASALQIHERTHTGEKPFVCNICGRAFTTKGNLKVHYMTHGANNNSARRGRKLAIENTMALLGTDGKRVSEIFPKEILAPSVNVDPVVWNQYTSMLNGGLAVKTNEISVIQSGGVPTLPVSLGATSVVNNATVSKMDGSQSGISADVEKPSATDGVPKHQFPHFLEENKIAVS
Technique: universal PBM
Molecule type: double-stranded DNA, one strand shown
Sample: in vitro
Tested at: 600 nM
Setting: 8-mer, flanks averaged, mean of replicates
Reading: higher = stronger binding
Endpoint: E-score
Oligonucleotide = AATCCACT; result = 0.0279
Oligonucleotide = AGACTGTA; result = 0.11
Oligonucleotide = ACCAAACG; result = -0.214
Oligonucleotide = AATCTGTG; result = 0.0621
Oligonucleotide = ATCTGTGC; result = 0.0117
Oligonucleotide = ATGAGCTA; result = 0.144
Oligonucleotide = CAAGGAGG; result = -0.0566
Oligonucleotide = AGCGTCAG; result = -0.0843
Oligonucleotide = CAGGGAGC; result = -0.247
Oligonucleotide = GGCTGGTA; result = -0.273
Oligonucleotide = CCTTATGA; result = 0.15

Other studies, line by line
Molecule = PhoQ, residues 284 288 289 292 302 303 ASHLAV; target = PhoP, residues 12 14 15 18 19 STHWV (Escherichia coli, UniProt P23836); test = Sort-seq, refers to: YFP reporter; test system = E. coli; setting = PhoQ-PhoP variant library, together with: 10 µM Mg2+; scale = reference: high Mg2+ state, higher = stronger signaling; endpoint = fold induction; result = 0.916

Excerpt of the above (study 2):
Oligonucleotide = AGTACGAC; result = -0.159
Oligonucleotide = ATTCGTTC; result = 0.078
Oligonucleotide = CCTAAAGC; result = -0.0346
Oligonucleotide = GGGAGTAA; result = 0.0497
Oligonucleotide = AGCCTGTC; result = 0.0249
Oligonucleotide = ATTTATAG; result = -0.0807
